Measured values from different studies.
Lines come from different studies, so protocols differ. Numbers after ± are the reported error.

CC(C)CCN(c1nc(C#N)nc(NC2COC2)n1)C(C)c1ccc(F)cc1 (centres unmarked) — plasma concentration (female CD-1 mice; intraperitoneal, 10 mg/kg, 2 h): 57.7 ng/mL
Cn1cc2cc1C(=O)NC[C@H](N)CC(=O)Nc1cc(n(C)c1)C(=O)Nc1cc(n(C)c1)C(=O)Nc1cc(n(C)c1)C(=O)Nc1cc(n(C)c1)C(=O)NC[C@H](N)CC(=O)Nc1cn(C)c(n1)C(=O)Nc1cn(C)c(n1)C(=O)Nc1cc(n(C)c1)C(=O)N2 — plasma concentration (HPLC; C57BL/6 mice, pooled plasma; intraperitoneal, 120 nmol/animal, 1.5 h): ~0.7 µM
COc1cccc(OCCN2CCC[C@H](CN3CCc4cc(OC)c(OC)cc4CC3=O)C2)c1 — plasma concentration ratio (C57BL/6 mice, plasma; intraperitoneal, 20 mg/kg, 15 min; relative to: compound over cilobradine): < 1
CC(NCCc1nsc2ccccc12)c1cccc2c1OCO2 (centres unmarked) — plasma concentration (CD-1 mice, male; subcutaneous, 3 mg/kg, 60 min): 100 ng/mL
CCN(CC)c1ccc(/C=N/NC(=O)c2cc(Cl)cc(Cl)c2)c(O)c1 — plasma half-life (BALB/c mice, female, plasma; intraperitoneal, 50 nmol, cassette dosing): 10.6 h
COc1ccc(OC)c(C(=Cc2ccc(O)c(OC)c2)C(=O)NCCc2ccc(O)cc2)c1 — plasma concentration (C57BL mice, MPTP/p Parkinson model, plasma; oral, 75 mg/kg, 8 weeks; relative to: normal mice): no effect
CN(CCCNC(=O)c1cccc(C(=O)O)c1)CCCNC(=O)c1cc(NC(=O)c2cc(NC(=O)c3cc(NC(=O)c4cc(NC(=O)[C@H](N)CCNC(=O)c5cc(NC(=O)c6cc(NC(=O)c7nc(NC(=O)c8nccn8C)cn7C)cn6C)cn5C)cn4C)cn3C)cn2C)cn1C — plasma concentration (HPLC; C57BL/6 mice, pooled plasma; intraperitoneal, 120 nmol/animal, 1.5 h): 13.8 µM
N#Cc1nc(N2CCOCC2)nc(N(Cc2ccc(F)cc2)CC2CCCNC2)n1 (centres unmarked) — plasma concentration (female CD-1 mice; intraperitoneal, 10 mg/kg, 2 h): 200 ng/mL
COc1ccc(OC)c(/C(=C\c2ccc(O)c(O)c2)C(=O)NCCc2ccc(O)cc2)c1 — plasma concentration (KM mice, plasma; oral, 50 mg/kg): 1 to 2 ng/mL
CC(C)CCN(Cc1ccc(F)cc1)c1nc(C#N)nc(N2CCOCC2)n1 — plasma concentration (female CD-1 mice; intraperitoneal, 10 mg/kg, 0.5 h): 141 ng/mL
O=[N][Fe]1([N]=O)[S](CCO)[Fe]([N]=O)([N]=O)[S]1CCO — plasma half-life (C57BL/6JNarl mice, plasma; oral, 13.25 mg/kg): 0.9 ± 0.2 h

Some of these lines once more:
O=[N][Fe]1([N]=O)[S](CCO)[Fe]([N]=O)([N]=O)[S]1CCO — plasma half-life (C57BL/6JNarl mice, plasma; oral, 13.25 mg/kg): 0.9 ± 0.2 h
COc1ccc(OC)c(C(=Cc2ccc(O)c(OC)c2)C(=O)NCCc2ccc(O)cc2)c1 — plasma concentration (C57BL mice, MPTP/p Parkinson model, plasma; oral, 75 mg/kg, 8 weeks; relative to: normal mice): no effect
